Measurements collected from several papers.
Compare with care: the assays were run in different laboratories. Numbers after ± are the reported error.
ALB: Albumin (ALB, Bos taurus, UniProt P02769)
EGFR: Epidermal growth factor receptor (EGFR, Homo sapiens, UniProt P00533)
RMS3: RMS3 (Lathyrus oleraceus, UniProt A0A109QYD3)

Compound | target | assay | test system | setting | how to read | quantity | value
NC(=NN=Cc1cccs1)[S][Ru+]([Cl])([P](c1ccccc1)(c1ccccc1)c1ccccc1)[P](c1ccccc1)(c1ccccc1)c1ccccc1.[Cl-] | ALB | binding, UV-Vis absorption titration | – | – | – | apparent association constant | 61100 M⁻¹
CC[C@H](C)[C@H](NC(=O)[C@H](CCC(=O)O)NC(=O)[C@H](CC(=O)O)NC(=O)c1ccc2c(c1)C(=O)OC21c2ccc(O)cc2Oc2cc(O)ccc21)C(=O)N[C@H](C(=O)N[C@@H](CC(N)=O)C(=O)N[C@@H](CCCCN)C(=O)N[C@H](C(=O)N[C@@H](CC(C)C)C(N)=O)C(C)C)C(C)C | yeast Vps4p L40D | fluorescence polarization | – | concentration not given | baseline: wild-type Vps4p | binding affinity | decreased
CC(C)[C@H](NC(=O)[C@@H](N)CO)C(=O)N[C@@H](Cc1ccc(O)cc1)C(=O)N[C@@H](CCC(=O)O)C(=O)N[C@@H](CO)C(=O)N1CCC[C@H]1C(=O)N[C@@H](Cc1ccc(OP(=O)(O)O)cc1)C(=O)N[C@@H](CO)C(=O)N[C@@H](CC(=O)O)C(=O)N1CCC[C@H]1C(=O)N[C@@H](CCC(=O)O)C(=O)N[C@@H](CCC(=O)O)C(=O)O | Ecdysteroid-phosphate phosphatase, PGM domain (EPP, Bombyx mori, UniProt Q7YTB0) | – | – | pH 7.5 | – | Km | 3600 µM
Cc1cc(C2=CCN(CC3OCCO3)CC2)cc([N+](=O)[O-])c1N | HTR2A (Homo sapiens, UniProt P28223) | calcium mobilisation, agonist | – | – | baseline: 5-HT | Emax | 23 ± 1.37%
CCN(Cc1ccccc1)C(=O)CCc1nc(CN2CCN(C(=O)Cc3ccc(OC)c(OC)c3)CC2)no1 | KCNQ2 (Homo sapiens, UniProt O43526) | potassium current, opener, whole-cell patch clamp | CHO stable | 1 µM, -10 mV | – | current density | 21.6 ± 4.43 pA/pF
CC(C)OC(=O)[C@H](C)NP(=S)(Oc1ccccc1)c1ccccc1 (stereo partly drawn) | Carboxypeptidase Y (Saccharomyces cerevisiae, UniProt P00729) | substrate, LC-MS/MS | – | 5 µM, with: carboxypeptidase Y 60 ng/mL | – | DNS-NH2 formation rate constant | 0.011 min⁻¹
O=C(O)c1ccccc1-c1c2ccc(=O)c([As]3SCCS3)c-2oc2c([As]3SCCS3)c(O)ccc12 | PTPN11 (Homo sapiens, UniProt Q06124) | – | – | 1 µM, full-length, with: DiFMUP | – | time to full inhibition | ~150 min
C[C@]12CC[C@H](O)CC1CCC1C2[C@H](O)C(=O)[C@]2(C)[C@@H](c3ccc(=O)oc3)CC[C@]12O (stereo partly drawn) | mixed recombinant human SULT isoforms | sulfation, substrate | – | – | – | Km | 40.2 ± 5.1 µM
O=P1(O)OC[C@H]2O[C@@H](n3cnc4cncnc43)[C@H](O)[C@@H]2OP(=O)(O)OC[C@H]2O[C@@H](n3cnc4cncnc43)[C@H](O)[C@@H]2O1 | gdpP, residues 84-659 (Bacillus subtilis, UniProt P37484) | substrate, HPLC | – | 100 µM, 37 °C, upper limit if undegraded 24 h, with: enzyme 1 µM | – | degradation rate | 0.11 ± 0.01 mol/min/mol enzyme
Nc1ncnc2c1ncn2[C@@H]1O[C@H](COP(=O)(O)OP(=O)(O)OC[C@H]2O[C@@H](O)[C@H](O)[C@@H]2O)[C@@H](O)[C@H]1O | Protein mono-ADP-ribosyltransferase PARP14, macrodomain 2 (PARP14, Homo sapiens, UniProt Q460N5) | binding | – | – | – | ΔH | -9 ± 0.07 kcal/mol
CCCNC(=O)[C@H](CC(C)C)NC(=O)[C@H](Cc1c[nH]cn1)NC(=O)CNC(=O)[C@@H](NC(=O)[C@H](C)NC(=O)[C@H](Cc1c[nH]c2ccccc12)NC(=O)[C@H](CCC(N)=O)NC(=O)[C@@H](Cc1ccccc1)NC(=O)CCCCCNC(=O)CN1CCN(CC(=O)O)CCN(CC(=O)O)CCN(CC(=O)O)CC1)C(C)C [indium-111 labelled] | Gastrin-releasing peptide receptor (Mus musculus, UniProt P21729) | lung uptake | CF-1 mouse | dose not given, 1 h post-injection, with: bombesin 100 µg blocking | baseline: unblocked | uptake reduction | ~75%
CC(=O)NC(Cc1ccc(Br)c(Cl)c1)C(=O)N[C@@H](C)C(=O)N1CCC[C@H]1C(=O)N1CCC[C@H]1C(=O)N[C@@H](CCC(=O)O)C(=O)N[C@@H](Cc1c[nH]cn1)C(=O)N[C@@H](CO)C(=O)N[C@H](C(=O)N[C@@H](C)C(N)=O)[C@@H](C)OP(=O)(O)O (stereo partly drawn) | EGFR | cell-free assay, inhibitor | – | 10 µM | – | inhibition | 0.14%
CC[C@H](C)[C@H](NC(=O)[C@H](CC(=O)O)NC(C)=O)C(=O)N[C@H](C(=O)N[C@H](C(=O)N[C@@H](CCCNC(=N)N)C(=O)N[C@@H](Cc1ccc(O)cc1)C(=O)N[C@@H](CC(N)=O)C(=O)NCC(=O)N[C@@H](CCCCN)C(=O)N[C@H](C(=O)N[C@@H](Cc1c[nH]c2ccccc12)C(=O)N[C@@H](Cc1c[nH]c2ccccc12)C(=O)N[C@@H](CCCNC(=N)N)C(=O)O)C(C)C)[C@@H](C)O)[C@@H](C)O | Insulin (INS, Bos taurus, UniProt P01317) | isothermal titration calorimetry | – | pH 2.6, 25 °C | – | Ka, site 4 | 21600 M⁻¹
O=C(NC1CCCC1=O)C1CCC1 (stereo not drawn) | rhlR (Pseudomonas aeruginosa, UniProt P54292) | reporter gene, agonist, measured: rhlI-gfp fluorescence | PAO-JP2 reporter | – | – | maximal activation | 96%
CC(C)P(=[Se])(NP(=[Se])(C(C)C)C(C)C)C(C)C | Alpha-amylase (Bacillus subtilis, UniProt P00691) | fluorescence quenching | – | concentration not given, 298 K | – | number of binding sites | 0.59 ± 0.03
CCN(CC)c1ccc2c(c1)[O][Pt-2]1([Cl])[N+](=C2)Cc2cccc[n+]21 (stereo not drawn) | ALB | binding to BSA | – | – | – | binding free energy | -8.32 kcal/mol
CC(C)C[C@@H](NC(=O)[C@@H](CCCCN)NC(=O)[C@@H](C)NC(=O)[C@@H](CCCNC(=N)N)NC(=O)[C@@H](Cc1c[nH]cn1)NC(=O)[C@H](NC(=O)[C@@H](CO)NC(=O)[C@H](NC(=O)[C@@H](Cc1c[nH]c2ccccc12)NC(=O)[C@H](N)Cc1ccc(O)cc1)C(C)C)[C@H](C)O)C(=O)N1CCC[C@@H]1C(=O)N[C@H](CC(=O)O)C(N)=O | Microtubule-associated protein tau, repeat domain (MAPT, Homo sapiens, UniProt P10636, del597-597) | dynamic light scattering | – | 100 µM, 24 h, 10 µM tau, with: 2.5 µM heparin | – | aggregate diameter | 3000 to 4000 nm
CC1=C(C)[C@H](Oc2c(F)cc3c(C)cc(=O)oc3c2F)OC1=O | RMS3 | enzyme activity, substrate, pre-steady-state kinetics | – | – | – | kcat | 0.00307 ± 0.000283 s⁻¹
COC(=O)C1C(OC(c2ccc(Cl)cc2)c2ccc(Cl)cc2)CC2CCC1N2C (single isomer, unassigned) | rat 5-HT2 receptors | binding, radioligand displacement | – | inactive if below 75% at 10000 nM, with: [3H]ketanserin | – | Ki | inactive
O=C(Nc1cccc(-c2nn[nH]n2)c1)c1cc(-c2ccncn2)cc(C(F)(F)F)c1 | CTX-M-27 beta-lactamase | surface plasmon resonance | – | – | – | Kd/Ki difference | 2 to 3 fold
O=C(O)COc1ccc(Cl)cc1 | Chloride channel protein (Torpedo marmorata, UniProt P21564, C212S) | inside-out patch | – | 20 mM, -80 mV | – | single-channel current amplitude | 0.24 pA
CC(=O)N[C@@H](CC(C)C)C(=O)N[C@@H](CCC(=O)O)C(=O)N[C@@H](Cc1c[nH]cn1)C(=O)N[C@@H](CC(=O)O)C(=O)Nc1ccc2c(C)cc(=O)oc2c1 | Caspase-10 (CASP10, Homo sapiens, UniProt Q92851) | substrate cleavage, substrate, fluorogenic AMC release | – | enzyme 0.25 activity units/µL | – | Vmax | 1040 ± 77.5 RFU/min
Nc1nc2ncc(CNc3ccc(C(=O)N[C@@H](CCC(=O)NCCOCCOCCNC(=O)CN4CCN5CCN(CC4)CC(=O)[O][Al]([18F])[O]C(=O)C5)C(=O)O)cc3)nc2c(=O)[nH]1 | FOLR1 (Homo sapiens, UniProt P15328) | radioligand saturation binding | xenograft homogenates | – | baseline: KB over CAL-51 xenografts | Bmax ratio | 14 fold
COc1cc(COc2ccc3c(c2)CN(C(=O)[C@H](CCC(=O)O)NC(=O)[C@H](CC(=O)O)NC(=O)[C@H](CC(=O)O)NC(=O)[C@H](CCC(=O)O)NC(=O)[C@@H](CCCNC(=N)N)NC(=O)[C@@H](CCCNC(=N)N)NC(=O)[C@@H](CCCNC(=N)N)NC(=O)[C@H](C)N(C)C(=O)[C@H](Cc2ccccc2)NC(=O)[C@@H](NC(=O)[C@H](Cc2ccccc2)NC(=O)[C@H](C)NC(=O)[C@H](CCCNC(=N)N)N(C)C(=O)[C@@H]2CCCN2C(=O)[C@H](CCCNC(=N)N)NC(=O)CNC(=O)c2ccc4c(c2)C2(OC4=O)c4ccc(O)cc4Oc4cc(O)ccc42)[C@@H](C)OCc2cc(OC)c(OC)cc2[N+](=O)[O-])[C@H](C(=O)N[C@@H](CCC(=O)O)C(=O)N[C@@H](CCC(=O)O)C(=O)N[C@H](C(N)=O)C(C)C)C3)c([N+](=O)[O-])cc1OC | EGFR | reporter phosphorylation, substrate | – | concentration not given, 60 min, after photoactivation | – | phosphorylation | 56.8 ± 0.4%
O[C@@H]1[C@@H](O)[C@H](O)C[C@H]2N[C@@H]12 | Exo-1,4-beta-xylosidase xlnD (xlnD, Emericella nidulans, UniProt Q5BAS1) | covalent inhibitor | Aspergillus nidulans | pH 4.5, ambient, with: 4MU-β-D-xyloside | – | kinact | 0.0837 s⁻¹
Nc1nc2c(c(=O)[nH]1)[n+](Cc1ccc(S(=O)(=O)F)cc1)cn2[C@@H]1O[C@H](COP(=O)(O)O)[C@@H](O)[C@H]1O | NT5C3B (Homo sapiens, UniProt Q969T7) | covalent modifier, mass spectrometry | – | – | – | covalent labelling rate constant | ~0.054 min⁻¹
CC1=CC(Oc2c(F)cc3c(C)cc(=O)oc3c2F)OC1=O (racemic) | RMS3 | enzyme activity, substrate, pre-steady-state kinetics | – | – | – | kcat | 0.0009 ± 0.00025 s⁻¹

Some of these lines once more:
Compound | target | assay | test system | setting | how to read | quantity | value
CC(=O)N[C@@H](CC(C)C)C(=O)N[C@@H](CCC(=O)O)C(=O)N[C@@H](Cc1c[nH]cn1)C(=O)N[C@@H](CC(=O)O)C(=O)Nc1ccc2c(C)cc(=O)oc2c1 | Caspase-10 (CASP10, Homo sapiens, UniProt Q92851) | substrate cleavage, substrate, fluorogenic AMC release | – | enzyme 0.25 activity units/µL | – | Vmax | 1040 ± 77.5 RFU/min
CCCNC(=O)[C@H](CC(C)C)NC(=O)[C@H](Cc1c[nH]cn1)NC(=O)CNC(=O)[C@@H](NC(=O)[C@H](C)NC(=O)[C@H](Cc1c[nH]c2ccccc12)NC(=O)[C@H](CCC(N)=O)NC(=O)[C@@H](Cc1ccccc1)NC(=O)CCCCCNC(=O)CN1CCN(CC(=O)O)CCN(CC(=O)O)CCN(CC(=O)O)CC1)C(C)C [indium-111 labelled] | Gastrin-releasing peptide receptor (Mus musculus, UniProt P21729) | lung uptake | CF-1 mouse | dose not given, 1 h post-injection, with: bombesin 100 µg blocking | baseline: unblocked | uptake reduction | ~75%
CC(C)OC(=O)[C@H](C)NP(=S)(Oc1ccccc1)c1ccccc1 (stereo partly drawn) | Carboxypeptidase Y (Saccharomyces cerevisiae, UniProt P00729) | substrate, LC-MS/MS | – | 5 µM, with: carboxypeptidase Y 60 ng/mL | – | DNS-NH2 formation rate constant | 0.011 min⁻¹
Nc1nc2c(c(=O)[nH]1)[n+](Cc1ccc(S(=O)(=O)F)cc1)cn2[C@@H]1O[C@H](COP(=O)(O)O)[C@@H](O)[C@H]1O | NT5C3B (Homo sapiens, UniProt Q969T7) | covalent modifier, mass spectrometry | – | – | – | covalent labelling rate constant | ~0.054 min⁻¹
